Assay results collected from several papers.
Numbers after ± are the reported error.

With `C[C@@H](Cn1ccc(-c2ccc(C#N)c(Cl)c2)n1)NC(=O)c1cc([C@@H](C)O)[nH]n1` the renal clearance was 10.3 mL/min (human, fasted, plasma; oral solution, 300 mg 14C-darolutamide, geometric mean).
`CC(=O)N(C)[C@H]1CCN(C(=O)c2cnc3c(c2)C[C@](C)(c2ccc(F)cc2)N3)C1` gave a renal clearance of 168 mL/min (human, male, urine; oral, 60 mg once daily, 0-48 h, steady state, geometric mean).
`CC(C)n1c(C2CCNCC2)nc2c([N+](=O)[O-])c(Br)c(Br)cc21` gave a renal clearance of 11.8 mL/min (human; oral, 100 mg single dose, mean).
With `C[C@@H](Oc1ccc(S(C)(=O)=O)cc1C(=O)N1C[C@@H]2C[C@]2(c2cc(C(F)(F)F)on2)C1)C(F)(F)F` the renal clearance was 6.03 mL/min (young healthy humans, plasma and urine; oral, 75 mg, 0 to 24 h, single dose).
`O=C(c1nc2n(n1)[C@H](c1ccccc1)C[C@@H]2F)C1CC1` has a renal clearance of 0.074 to 0.265 mL/min (human; 5 mg single dose).
With `Cc1cc(-c2nccc3c2ccn3CC(=O)Nc2ccc(-c3cnccn3)cn2)ccn1` the renal clearance was 11.9 mL/min (human, plasma and urine; oral, 40 mg single dose, geometric mean).
`CN(C)C(=O)c1cc2cnc(Nc3ccc(N4CCNCC4)cn3)nc2n1C1CCCC1` gave a renal clearance of 18.7 mL/min (human, severe renal impairment, plasma and urine; oral, 400 mg, geometric mean).
With `NC[C@@]1(CC(=O)O)[C@@H]2CC[C@H]3C[C@@H]2[C@@H]1C3` the renal clearance was 62.2 ± 17.2 mL/min (human, moderate renal impairment, urine; oral, 20 mg single dose).
For `CN[C@@H]1COc2c(S(=O)(=O)NC(=O)Nc3c4c(cc5c3CCC5)CCC4)cnn2C1`, the renal clearance was 8.1 mL/min (human, urine; oral, 300 mg twice daily, 0-12 h, day 7).
With `Cn1cc(-c2cn3nccc3c(-c3cnn([C@]4(CC#N)C[C@@H](C#N)C4)c3)n2)cn1` the renal clearance was 21.7 mL/min (healthy human; 200 mg twice daily, day 10).
For `Cl.[2H]C([2H])([2H])CC(=O)c1cnc(NC(=O)C2CC2)cc1Nc1cccc(-c2ncn(C([2H])([2H])[2H])n2)c1OC`, the renal clearance was 3.4 mL/min (human, fasted; oral, 20 mg, once daily multiple dose, mean incl. outlier).

A few entries again:
`CC(C)n1c(C2CCNCC2)nc2c([N+](=O)[O-])c(Br)c(Br)cc21` gave a renal clearance of 11.8 mL/min (human; oral, 100 mg single dose, mean).
